Assay results pooled from the literature.
± marks the error that the study gave.
Organism: Trypanosoma brucei brucei

SMILES | test | test system | conditions | scale | quantity | value
Nc1ncnc2c1c(Cl)cn2[C@@H]1O[C@H](CO)[C@@H](O)[C@H]1O | parasite growth, resazurin | Squib 427 | 72 h | – | EC50 | 1.33 ± 0.34 µM
COc1ccc(CONC(=O)C2OC(C)(C)OC2COP2(=O)OCc3ccccc3O2)c(OC)c1 (centres unmarked) | parasite growth, Alamar Blue | Lister 427 bloodstream form | – | – | IC50 | > 100 µM
Nc1ncnc2c1c(Br)cn2[C@@H]1O[C@H](CO)[C@@H](O)[C@H]1O | parasite growth, resazurin | Squib 427 | 72 h | – | EC50 | 1.2 ± 0.3 µM
C[Se][C@@H]1O[C@H](COC(C)=O)[C@@H](OC(C)=O)[C@H](OC(C)=O)[C@H]1OC(C)=O | – | bloodstream form | 5 µM, 24 h, 1 % DMSO | – | viability | 91.9 ± 14.8%
C[C@H](Nc1c(-c2c(F)cc(OCCCN(C)C)cc2F)c(Cl)nc2ncnn12)C(F)(F)F | – | Lister 427 | 4 µM, 12 h | – | viability | 23.9%
Cc1cc(C(=O)Nc2nc3cccc(C)c3n2[C@H]2CCCCN(C(=O)/C=C/CN(C)C)C2)ccn1 | Alamar Blue | 2T1 CLK1 overexpression | – | relative to: uninduced control | EC50 shift | 6.5 fold
CC(=O)N[C@@H]1[C@@H](OC(C)=O)[C@H](OC(C)=O)[C@@H](COC(C)=O)O[C@H]1[Se]Cc1ccccc1 | – | bloodstream form | 5 µM, 24 h, 1 % DMSO | – | viability | 88.1 ± 17.5%
CC1(C)O[C@H](COP2(=O)OCc3ccccc3O2)[C@H](C(=O)NO)O1 (some centres unmarked) | parasite growth, Alamar Blue | Lister 427 bloodstream form | – | – | IC50 | > 100 µM

For quick reference, copied from above:
SMILES | test | test system | conditions | scale | quantity | value
Nc1ncnc2c1c(Cl)cn2[C@@H]1O[C@H](CO)[C@@H](O)[C@H]1O | parasite growth, resazurin | Squib 427 | 72 h | – | EC50 | 1.33 ± 0.34 µM
